Measured values from different studies.
A part holds a random share of what one study measured. Substitutions count along the parent as printed.

Study 1
Target: RNA binding protein fox-1 homolog 2, RRM domain, GST-SBP tag (RBFOX2, Homo sapiens, UniProt O43251-10, residues 100-194)
Technique: RNA Bind-n-Seq
Form: RNA
Matrix: in vitro
Concentration: 365 nM
Setting: natural RNA segment, single round, ends assumed
Baseline: no-protein control
Direction: higher = stronger binding
Quantity: RBNS enrichment (R)
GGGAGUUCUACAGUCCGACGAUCAUUUAUUCUCUACAAUAUAUAAAAUGUAUUUGUUCUCUACAAUAAAUGUGUUUAUUCUCUACAAUAUAUAAAAACAUAUUGGACUACUAUUACAUAAUUAAAUUACUCUUUGGAAUUCUCGGGUGCCAA: 0.65
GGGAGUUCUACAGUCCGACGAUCAAAAAUUGCUGAAUAUAAAAUCUUUGAAAAUUUUCUUUAUGUGUGAAGACACAAAGUAUGGGGGAAGACAGCAAUCAAAACUAACUUUUUGUAGAUAGCCAUUUCAUUUCUGGAAUUCUCGGGUGCCAA: 1.39
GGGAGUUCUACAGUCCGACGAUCCCUGGCCUCUGCAGGGAACUGCAGCACACACUGCACUCCCACCUGCUCUUGCCGCCAGCAUUGCACCAGCAGUCCAGAAUUCCUGCCUGACAACCCGUGUUUCCUUUAUUUGGAAUUCUCGGGUGCCAA: 0.625
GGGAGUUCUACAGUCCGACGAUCGCUGUCUUUGUUAGAUACUGCUGAGUGAAAGGUGGACCGAGAAGGCUCUUGUGAAGCUCCAGGUAGACGGGAAUGUUCCUCGGUUCAGGUGAGAGCCAGAUCUAGAGAGUUGGAAUUCUCGGGUGCCAA: 0.42
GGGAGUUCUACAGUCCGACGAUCAAACUAUUCUCGCAAGGAAAACAUUGCCACCAUUUGUAGAACAUGUAAUCUUCAAGUAUGUGCUAUUUUUUGUCCCUGUAUCUAAGUCAAAUCAGGAACUUUUUUCUAACUGGAAUUCUCGGGUGCCAA: 0.454
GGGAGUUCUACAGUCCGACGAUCCUGUAGGAGGUCCUCCAGCCCGGGUGCGUGGGUGCACAGGUGCGUGGGUGUGUGGAACGGGUCUGCUCUGCCUGCUUCUGUCUCUGUCUGGGUGUUUGAGUUCCAAAAAGUGGAAUUCUCGGGUGCCAA: 1.03
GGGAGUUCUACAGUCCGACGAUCGUUCACCCGCCAAAGACCCCUUCGGUGUGACCGGCAGCCUGGCUGACCGUGAGGGCCAGAGAGAGCCUUCACGGACGGCGCUGGUGGGUGAGCCGAGCUGUGGUGGCGGCUGGAAUUCUCGGGUGCCAA: 0.655
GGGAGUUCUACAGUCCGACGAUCAUUUACAGUGCUUGCUCUGAGCAGCUCAGAAGACAGUAGAGAAUGCGAGAGGACCUUCUGACGGUGAUUGUCCAACAUGCAUCUGGCCCGCUCUGCGGCUCCUCCCACCUUGGAAUUCUCGGGUGCCAA: 0.387

Study 2
Target: NFE2L3, bZIP domain (human)
Technique: DHFR protein complementation
Matrix: yeast
Setting: single substitutions, most at no-binding floor
Baseline: wild-type JUN-FOS pair
Direction: higher = stronger binding
Quantity: binding fitness
Parent: JUN, bZIP domain (human); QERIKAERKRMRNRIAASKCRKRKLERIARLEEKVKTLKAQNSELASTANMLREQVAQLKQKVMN; partner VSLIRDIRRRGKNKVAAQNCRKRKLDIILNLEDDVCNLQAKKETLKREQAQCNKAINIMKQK
Q41A: -1.38 natural log
E44L: -1.48 natural log
S47H: -1.54 natural log
L52P: -1.5 natural log
E44A: -1.44 natural log
Q58P: -1.5 natural log
A49W: -1.49 natural log
Q41I: -1.49 natural log
M51Q: -1.35 natural log
T37N: -1.41 natural log
S43H: -1.52 natural log
K39Y: -1.61 natural log
A46Q: -1.5 natural log
Q55A: -1.44 natural log

Study 3
Target: CCNB3, cyclin fold, Cln2 fusion (human)
Technique: yeast growth competition, sequencing
Matrix: yeast
Setting: weak parent motif
Baseline: not given
Direction: higher = stronger binding
Quantity: normalised enrichment score
Parent: CDC25A docking peptide (human); PPHRRRLLFACSP
PPHRIRLLFACSP [R5I]: 0.457
PHHRRRLLFACSP [P2H]: 0.357
PPHRRRLLFWCSP [A10W]: 0.121
PPHRRRLLFACSL [P13L]: -0.0151
PPPRRRLLFACSP [H3P]: 0.107
GPHRRRLLFACSP [P1G]: 0.186
PPHRRRLLRACSP [F9R]: 0.639
PAHRRRLLFACSP [P2A]: 0.208
KPHRRRLLFACSP [P1K]: 0.705
PPHRGRLLFACSP [R5G]: 0.338
PPHRRRLGFACSP [L8G]: 0.0295
PQHRRRLLFACSP [P2Q]: 0.441
PPHRRRLLFAMSP [C11M]: -0.288
PPHRRALLFACSP [R6A]: 0.0995
PPMRRRLLFACSP [H3M]: 0.498
PPHRRRLPFACSP [L8P]: -0.129

Study 4
Target: Ras GTPase-activating protein-binding protein 1, C-terminal RGG region (G3BP1, Homo sapiens, UniProt Q13283)
Chain of UniProt Q13283 (whole entry, looked up): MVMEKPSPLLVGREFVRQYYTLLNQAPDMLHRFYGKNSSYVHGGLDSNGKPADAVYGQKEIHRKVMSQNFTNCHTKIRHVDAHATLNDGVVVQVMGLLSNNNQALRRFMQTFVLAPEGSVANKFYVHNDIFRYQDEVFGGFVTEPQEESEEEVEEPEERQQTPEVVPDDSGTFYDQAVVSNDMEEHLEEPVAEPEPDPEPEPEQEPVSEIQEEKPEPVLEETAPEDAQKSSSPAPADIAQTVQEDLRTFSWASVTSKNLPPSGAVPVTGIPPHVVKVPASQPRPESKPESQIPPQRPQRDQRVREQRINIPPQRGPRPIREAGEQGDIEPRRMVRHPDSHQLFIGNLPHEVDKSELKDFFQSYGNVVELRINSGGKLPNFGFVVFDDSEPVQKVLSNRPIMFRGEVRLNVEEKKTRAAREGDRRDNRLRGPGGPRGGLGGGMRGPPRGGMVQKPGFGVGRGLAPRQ
Technique: RNA Bind-n-Seq
Form: RNA
Matrix: in vitro
Concentration: 1 µM
Setting: whole 134-nt RNA, ends assumed
Together with: 150 mM KCl
Baseline: input library
Direction: higher = stronger binding
Quantity: log2 enrichment
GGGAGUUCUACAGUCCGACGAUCUAUAUUGAGGUAUAGAGCUAUUCUUUGUAGGUACCCUGGUGAGACCGAUACAAAUAUGCCCCUCCCCAUAAUGGAAUACUAAUUUUUAUUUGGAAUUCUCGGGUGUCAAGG: -1.13
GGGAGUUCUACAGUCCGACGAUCUAACUUUAGAGGAGGAUCUGAUGGAUAUGGCAGUGGACGUGUAUUUGGGGAUGGCUAUAAUGGGUAUGGAGGAGGACCUGGAGGUGGCAAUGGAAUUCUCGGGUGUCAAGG: -1.58
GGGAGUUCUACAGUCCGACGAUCUCAAGUCCUGUGCUACACAUCGUAUGUACCGAAUCGGGAAAGGGAAAGGAAAGGGAAAGUAUUAUGUUACGCCGUUCGGAUCUGCACUUCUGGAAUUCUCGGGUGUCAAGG: -1.51
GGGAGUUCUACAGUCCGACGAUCCUGUGCUACACAUCGUAUGUACCGAAUCGGGGCCCCCCGGGGCCCCCCGGGCCCCCCGGGGAAAGUAUUAUGUUACGCCGUUCGGAUCUGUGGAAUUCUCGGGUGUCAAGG: -2.27
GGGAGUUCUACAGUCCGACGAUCGCAGGUAGUAAAAACAAAUGGAAAUGCUUCGGAUAGUGGCAGGGGUGGGGGUUGCUAAGGAAAGGGUGGGAUGGGAGUGGGUAAAGAGUUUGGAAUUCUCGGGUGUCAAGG: 1.61
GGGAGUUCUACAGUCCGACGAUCUGGCCCUGGUGGCAUGCGGGGAGGAAGAGGUGGCCUCAUGGAUCGUGGUGGUCCCGGUUGAAUGUUCAGAGGUGGCCGUGGUGGAGACAGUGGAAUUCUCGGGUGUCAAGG: 1.71
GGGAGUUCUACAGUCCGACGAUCGACAGACAACACGCACCCACACAGACACAGAGGGAAGGGGUUGGGAUGGGGACAGGGUGCACAGCAGGGCGGGGUAGGACCCCAGCCCCUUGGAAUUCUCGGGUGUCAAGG: -0.224
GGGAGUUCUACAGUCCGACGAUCCAAGUCCUGUGCUACACAUCGUAUGUACCGAAUCGGUUUGGUUUUUUUGGAAAGGAAAGUAUUAUGUUACGCCGUUCGGAUCUGCACUUCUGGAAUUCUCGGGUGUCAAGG: -1.62
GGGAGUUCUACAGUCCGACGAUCCUGUGCUACACAUCGUAUGUACCGAAUCGGGGAAAAAAAGGGAAAAAAAGGAAAAAAAGGGAAAGUAUUAUGUUACGCCGUUCGGAUCUGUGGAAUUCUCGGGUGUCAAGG: -1.65

Other studies, line by line
PhoQ, residues 284 288 289 292 302 303 SNSSNI
fold induction (PhoP, residues 12 14 15 18 19 NHTVL (Escherichia coli, UniProt P23836); Sort-seq, item: YFP reporter; E. coli; PhoQ-PhoP variant library, together with: 10 µM Mg2+; baseline: high Mg2+ state, higher = stronger signaling): 7.51

A few entries again (study 3):
PPHRRRLLRACSP [F9R]: 0.639
GPHRRRLLFACSP [P1G]: 0.186
PPHRRALLFACSP [R6A]: 0.0995
